Published values gathered from unrelated publications.
Lines come from different studies, so protocols differ.

Compound	test	test system	setting	endpoint	value
COc1ncnn2ccc(-c3cnc4nc(C)n(Cc5nnc([C@@H](C)F)o5)c4c3)c12		human	oral, dose not given, grade 2	patients with malaise	0%
C[C@@H]1OC(=O)NN=C1c1ccc(-c2ccc(F)cc2)c(C(F)(F)F)c1	phase I trial, refers to: back pain worst grade 1	human patients	20 mg loading then 1 mg daily	patients with adverse event	0%
Cn1cncc1-c1c(F)cncc1NC(=O)c1c(N)nn2cc(F)cnc12		human patients	oral, dose not given, all doses	patients grade ≥3 Hyponatremia	6%
CCN(CCO)CCCC(C)Nc1ccnc2cc(Cl)ccc12 (stereo not drawn)		human, newly diagnosed glioblastoma	oral, 800 mg/dose, maculopapular rash grade 2, with RT and TMZ	patients with adverse event	33%
Cn1ncc(-c2nc(N[C@H]3CC[C@H](N)CC3)ncc2Cl)c1CC1CC1	refers to: treatment-related Vomiting	human patients phase I	dose not given	patients with adverse events	38.7%
C=CC(=O)Nc1cc(Nc2nccc(Nc3cc(Cl)c(F)cc3C(C)(C)O)n2)c(OC)cc1N1CC[C@@H](N(C)C)C1		human patients	oral, 300 mg, treatment-emergent adverse events	patients with amylase increased	15.7%
O=C(c1ccc(F)c(F)c1Nc1ccc(I)cc1F)N1CC(O)([C@@H]2CCCCN2)C1		human patients	oral, 1 mg/kg, patients aged at least sample B years	patients with SAE leading to withdrawal	0%
Cc1cn([C@H]2O[C@@H](CO[P@@](=O)(N[C@@H](C)C(=O)OC(C)C)Oc3ccccc3)[C@H](O)[C@H]2F)c(=O)[nH]c1=O	refers to: external ear pain	human	50 mg	patients with TEAE	17%
C[C@]1(O)C[C@@](N)(c2ccc(-c3nc4n(c3-c3ccccc3)COc3ccncc3-4)cc2)C1		human, advanced or metastatic solid tumours	16 mg once daily, phase I dose escalation	patients with Fatigue TEAE	0%

A few entries again:
Compound	test	test system	setting	endpoint	value
COc1ncnn2ccc(-c3cnc4nc(C)n(Cc5nnc([C@@H](C)F)o5)c4c3)c12		human	oral, dose not given, grade 2	patients with malaise	0%
